# Measured values collected from several papers.
# Parts stem from different laboratories: compare values within a part only. Positions count from the first letter of the parent shown.

# Set 1
# Target: Sal-like protein 4, full length isoform B (SALL4, Homo sapiens, UniProt Q9UJQ4-2, residues 1-616)
# Method: universal PBM
# Form: double-stranded DNA, one strand shown
# Sample: in vitro
# Concentration: not given
# Setting: 8-mer, flanks averaged, mean of replicates
# Direction: higher = stronger binding
# Target sequence (chain): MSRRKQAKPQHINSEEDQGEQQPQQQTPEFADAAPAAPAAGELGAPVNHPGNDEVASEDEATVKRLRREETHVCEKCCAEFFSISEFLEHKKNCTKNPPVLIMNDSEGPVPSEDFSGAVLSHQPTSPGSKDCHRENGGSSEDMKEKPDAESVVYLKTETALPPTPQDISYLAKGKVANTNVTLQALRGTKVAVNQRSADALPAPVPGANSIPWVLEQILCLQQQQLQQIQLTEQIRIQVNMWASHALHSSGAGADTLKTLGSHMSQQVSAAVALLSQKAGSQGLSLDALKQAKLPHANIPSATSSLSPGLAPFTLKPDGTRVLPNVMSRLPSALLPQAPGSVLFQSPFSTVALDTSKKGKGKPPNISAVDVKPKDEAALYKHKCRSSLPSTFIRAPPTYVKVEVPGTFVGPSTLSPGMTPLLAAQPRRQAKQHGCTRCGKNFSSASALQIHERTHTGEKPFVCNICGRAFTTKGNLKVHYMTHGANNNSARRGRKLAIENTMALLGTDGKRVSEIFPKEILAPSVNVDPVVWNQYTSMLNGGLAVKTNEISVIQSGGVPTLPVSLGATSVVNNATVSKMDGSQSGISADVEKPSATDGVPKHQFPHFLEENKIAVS
Oligonucleotide,E-score
TCCTCTCA,0.0207
GGCTAGCA,-0.0657
ACGAAAAC,0.153
CCTTAAGG,-0.0715
AGTGCCAA,0.0644
AGACCACA,-0.0868
AACCGCTG,-0.242
AACACTGT,0.0884
GACTTCAA,0.0779
CCCCGGCA,-0.266
ATGGGGAA,-0.017
GCAAGAGA,-0.0728
AACACATG,0.196
AGCGTTCG,-0.314
GTTGACCA,-0.171
TCTCGAGA,-0.0573
ATTAGCAC,0.104
CTTTCTTC,-0.0821
GACGCGAC,-0.315
AATGCAAA,0.287
CCGCTCTC,-0.253
ATGTGTGC,-0.0126
ATGGAAAT,0.268
CTCGTATA,0.123
CCAAATGG,-0.0418

# Set 2
# Target: CCNB3, cyclin fold, Cln2 fusion (human)
# Method: yeast growth competition, sequencing
# Sample: yeast
# Setting: strong parent motif
# Baseline: not given
# Direction: higher = stronger binding
# Parent: PKN2 docking peptide (human); VSAVRKLDFSDTM; partner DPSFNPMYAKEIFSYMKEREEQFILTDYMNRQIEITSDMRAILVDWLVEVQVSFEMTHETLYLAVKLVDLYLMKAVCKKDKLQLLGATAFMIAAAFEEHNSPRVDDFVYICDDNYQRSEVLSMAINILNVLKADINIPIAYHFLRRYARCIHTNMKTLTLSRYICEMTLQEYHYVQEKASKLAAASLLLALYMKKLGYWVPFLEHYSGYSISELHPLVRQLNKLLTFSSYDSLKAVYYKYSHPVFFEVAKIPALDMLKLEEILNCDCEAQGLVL
Variant,normalised enrichment score
VSIVRKLDFSDTM [A3I],1.73
VSAVRMLDFSDTM [K6M],0.339
VSAVRKLDFSDAM [T12A],2.1
VSAERKLDFSDTM [V4E],-0.103
VSAVSKLDFSDTM [R5S],0.0305
VSATRKLDFSDTM [V4T],0.326
VSQVRKLDFSDTM [A3Q],-0.0296
VSAVRKLDFSATM [D11A],2.22
VSAVRGLDFSDTM [K6G],0.197
VSAVRKLDFWDTM [S10W],0.595
VSAVRKLDFCDTM [S10C],1.11
VSAVRKLDFSETM [D11E],1.59
VSARRKLDFSDTM [V4R],3.83
VSYVRKLDFSDTM [A3Y],0.349
VSAVRKLDFSDVM [T12V],0.993
VSNVRKLDFSDTM [A3N],0.0936
VSAVRKLDHSDTM [F9H],0.154
VSAVRKLDFSTTM [D11T],1.69
VSAVRKLDFQDTM [S10Q],0.981
VSAVRKLDFSDCM [T12C],2.14
VSAVRKLKFSDTM [D8K],0.729
VSLVRKLDFSDTM [A3L],0.9
VSAVRHLDFSDTM [K6H],0.415
VSAVRKRDFSDTM [L7R],-0.138
VSASRKLDFSDTM [V4S],0.82

# Set 3
# Target: Histone acetyltransferase KAT6A, winged helix 2, GST fusion (KAT6A, Homo sapiens, UniProt Q92794, residues 85-181)
# Method: protein binding microarray
# Form: double-stranded DNA, one strand shown
# Sample: in vitro
# Concentration: not given
# Setting: 8-mer, flanks averaged, mean of 2 arrays, mostly near background
# Baseline: not given
# Direction: higher = stronger binding
# Construct (chain): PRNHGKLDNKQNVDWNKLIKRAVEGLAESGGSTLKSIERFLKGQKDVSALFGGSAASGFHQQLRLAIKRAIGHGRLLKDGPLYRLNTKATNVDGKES
Oligonucleotide,E-score
ACTTGCAT,-0.0783
ATAGTCAT,-0.0875
AGAGACAA,-0.0452
CATGTGAG,-0.121
CAACGGGG,-0.0533
CGAAGTGC,0.168
CGCTGGAC,0.183
AACCACAA,-0.00198
AGTGAACA,-0.142
ACGGGGAT,0.0222
GGAAAGCA,0.117
ACTAGTGG,-0.134
AGCGTCCG,0.119
TCTGTAAA,-0.104
AACAAAAG,0.0601
AGATGTCA,-0.0112
CTCCATTA,-0.115
CATGAGGG,-0.0141
AGCCCGGG,0.13
CAATCCAA,0.00265
ATTTCAGC,0.08
ATTGATCA,-0.0456
AGCTGCTC,-0.0754
CCACACGC,0.0985

# Set 4
# Target: RNA binding protein fox-1 homolog 2, RRM domain, GST-SBP tag (RBFOX2, Homo sapiens, UniProt O43251-10, residues 100-194)
# Method: RNA Bind-n-Seq
# Form: RNA
# Sample: in vitro
# Concentration: 365 nM
# Setting: natural RNA segment, single round, ends assumed
# Baseline: no-protein control
# Direction: higher = stronger binding
# All sequences stand within: GGGAGUUCUACAGUCCGACGAUC … UGGAAUUCUCGGGUGCCAA
# Target sequence (chain): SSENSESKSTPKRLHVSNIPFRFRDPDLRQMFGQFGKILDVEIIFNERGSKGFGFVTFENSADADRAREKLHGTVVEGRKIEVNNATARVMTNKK
Oligonucleotide,RBNS enrichment (R)
UCAUAGCUCAAGAAUUGUUAGCAAAUGACAGAUUUCUGUAAGCCUAUAUAUAUAGUCAAAUCGAUUUAGUAAGUAUGUUUUUUAUGUUCCUCAAAUCAGUGAUAAUUGGU,0.509
ACACAACCUUAUUUUUCUUUACAAAAGCAAAAAAGGAAACCAAAAAAGAUACAGCCUUUGAAUGAUGCCUGCUGGCUGUCUGUAUUCGUUUGCUUGGGCAGCUCGGGCCU,20.8
CAUUAUUUAUUACGGAGCUGCCCCGCCUGGGUGGCCGGACCCCUGGGCCUUGGGGCUGUGGAUCCUGGUUCCCUGUUUGGAAAAUUCACCACCUCUAGCUCCUCACUGUU,0.479
GCAACUCAGUGGCCAUUCUUCUGCCUUCCCAGACCUUAGUUUUAUAAAGCAUUGUCUGUUCCAGAGUGGCCUUUGAAGAGACUGAAUAAUCACUUCGUCAUAAUGUUAAG,0.474
GGGAGAUCUGUCAGCUCAUUCUUGCCUUACUCCAAUGAUGGCCCAGGUGGAAAAGUAGCAGCUGUAUCGGGCUUCCUCAUCCUGCCUGUUCCCCCACACCUGCCAGGAUA,0.344
CCCAGAGGUCACUUAGGACUGAGAUGCUCCAAAGUUUGAAGUGCCAAAUAACAUGAAACGUGCUCUGUCGACUCAAUAUUAAAGCCAGGGUGAAGAGUUGCAAACCCCUC,1.02
UGAAGCCAACACCAAAAGAGGGAGCACACCUGUUCCCUACCUCCUGGAAGUGGAGCCAAGUUUCAGGAUUUGCAUCCCAAGAGUCUCUAAGAAUUCUUGCCAUGGUCCUA,0.539
AAGUGAGAGUUUUGGUUAGUAAUCACAGCUGUAAAAUUGAUUUACACUUGUUAAACAUAUUGCCCCUCAAUUUUGCACACUAUAUUCUUGUAUAUUAUUUCAAAUAAAAG,0.384

# Excerpt of the above (set 2):
Variant,normalised enrichment score
VSAVRKLDFSATM [D11A],2.22
VSAVRGLDFSDTM [K6G],0.197
VSAVRKLDFWDTM [S10W],0.595
VSAVRKLDFCDTM [S10C],1.11
VSAVRKLDFSETM [D11E],1.59
VSARRKLDFSDTM [V4R],3.83
VSYVRKLDFSDTM [A3Y],0.349
VSAVRKLDFSDVM [T12V],0.993
VSNVRKLDFSDTM [A3N],0.0936
